# Assay results gathered from unrelated publications.
# Parts stem from different laboratories: compare values within a part only. Substitutions count along the parent as printed.

# Sample 1 — target: CCNB1, cyclin fold, Cln2 fusion (human); technique: yeast growth competition, sequencing; sample: yeast; notes: weak parent motif; relative to: not given; direction: higher = stronger binding
# Starting sequence: SLBP docking peptide (human); ARYKRKLLINDFG
Substitution,normalised enrichment score
ARYKRKLCINDFG [L8C],0.368
ARDKRKLLINDFG [Y3D],0.508
ARYKYKLLINDFG [R5Y],-0.138
AIYKRKLLINDFG [R2I],0.975
ARYKRRLLINDFG [K6R],0.401

# Sample 2 — technique: RNA Bind-n-Seq; form: RNA; sample: in vitro; concentration: 365 nM; relative to: no-protein control; direction: higher = stronger binding
# Target: RNA binding protein fox-1 homolog 2, RRM domain, GST-SBP tag (RBFOX2, Homo sapiens, UniProt O43251-10, residues 100-194)
# Notes: natural RNA segment, single round, ends assumed
Strand,RBNS enrichment (R)
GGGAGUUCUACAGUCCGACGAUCUGGUCAUAGAUCUUGAUUUCUCUGAAUCGUGAUGACCACACCCAGUCAUCUUCACAGCAUAAUUGCAGGUGGCAGUAAAGAGAGUGUGCUGGGUAAGGAGCAGUUGCUGGUGGAAUUCUCGGGUGCCAA,0.983
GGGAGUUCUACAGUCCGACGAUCAUUUGACUGGAAAUGUAUAAUGUGUUUUACUGUUGAAAAAAAUAUGAGCUCUGUUUCAACUAACGUGUCAUCUUGUAUUUCUUUCAAGGAAACCAAUUAGAUUCAAAUGUUGGAAUUCUCGGGUGCCAA,0.37
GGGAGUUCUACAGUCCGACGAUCGUACAUUCACUAAAUUUAUCAAAUAAAUUUAAAACUAGAUUGUUCCUAAGUCCAAUUGUUGAAAUUGGAUCAAAGUAGAAUUGUCAGAGGAACACAACAUUAAGCCAUUAUGGAAUUCUCGGGUGCCAA,0.367
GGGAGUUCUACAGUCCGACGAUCCUCUGUCUUACACACAUGCACACAUACACACACACUAAGUGCCUAGACUUUGAAUAGAUCUAGCAAUUGGACAUUAGUAAGCCUAAGUUUUUACAUGAUUGCAUUCCUACUGGAAUUCUCGGGUGCCAA,0.856
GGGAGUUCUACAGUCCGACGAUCCUGUUUUUAACCCUCCAAAAAAUUCCCUUCUCCUGCCCUCUUUCCCUGGCAACCCUGAUUGAUUAUCUGAUCCUAUAAUUUUGCCUUUUCUAGAAUGUCAUAUAAAUGGAUGGAAUUCUCGGGUGCCAA,1.4

# Sample 3 — technique: RNA Bind-n-Seq; form: RNA; sample: in vitro; concentration: not given; relative to: input RNA pool; direction: higher = stronger binding
# Target: RING finger protein unkempt homolog, zinc fingers 1-6, GST-SBP tag (UNK, Homo sapiens, UniProt Q9C0B0, residues 30-357)
# Notes: RNA with constant flanks, human-mouse chimeric sites, ends assumed
# Construct (chain): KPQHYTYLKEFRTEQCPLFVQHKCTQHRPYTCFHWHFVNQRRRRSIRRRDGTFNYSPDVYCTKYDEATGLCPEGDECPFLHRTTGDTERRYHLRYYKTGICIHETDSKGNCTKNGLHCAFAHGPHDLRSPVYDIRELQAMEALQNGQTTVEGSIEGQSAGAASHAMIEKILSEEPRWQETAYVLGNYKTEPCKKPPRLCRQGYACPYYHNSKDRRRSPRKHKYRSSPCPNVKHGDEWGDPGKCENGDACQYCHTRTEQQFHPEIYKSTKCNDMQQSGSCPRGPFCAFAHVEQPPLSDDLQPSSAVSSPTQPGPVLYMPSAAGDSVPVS
Strand,bound/input enrichment [ratio]
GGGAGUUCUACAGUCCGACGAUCUAUCCAACUUUCUUGCCACAUUUUGAAUUCCAAGACAUUAUCCCUCCAGAUGACUUCCUAACGAGUGAUGAAGAGCAAGAUUUGGUUUUAUUUGGAACUAUGAGAGGACAAGUUGUUGGACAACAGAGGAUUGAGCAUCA,0.124
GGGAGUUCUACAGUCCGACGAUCAAAGCCCUUGAAGAAAAAAAAAACUCGAACAGAUUUGACAAGGGUAGCCAGCUUGGAGUCUAGCAAUUUGCCAAUGUGUUUACCAAUCUGGGGGCUUGUUUUUCUUUUCUUCUUUCAAAUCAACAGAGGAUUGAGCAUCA,0.767
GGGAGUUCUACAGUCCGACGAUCAACGUGGAGUUGAGUUCGCUGGCCCGGCUUCCCAGCUUGAAUAAACUCCGGAAGUUGGAGCUUAGUGACAAUAUAAUUUCUGGAGGCUUGGAAGUCCUGGCAGAGAAAUGUCCAAAUCUUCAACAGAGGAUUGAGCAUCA,0.202
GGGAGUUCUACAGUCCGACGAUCGGCCUGGGACCGUCCUGGGCUAGUACAAAUAGCGGCAGUGGAGGCUCGAGAGGAAAGUUGUUAGUGGAGGCAGUGGUUAGAGGCCGUCAUGUACGGUCCUUUACUCGAUAGAUGUGUUCUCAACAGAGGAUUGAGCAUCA,0.584
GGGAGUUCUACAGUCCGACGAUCUUUCUACUGCAGCAAACCAUGCUACGAAUUAAGGAUCCUAAGAAGUCCCUGGAUUUUUAUACGAGGGUUCUUGGAAUGACCCUCCUGCAGAAGCUUGACUUCCCUGCUAUGAAGUUCUCGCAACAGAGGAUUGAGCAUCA,0.0857

# Mixed results
Substance,target,test,system,conditions,how to read,endpoint,result
"PhoQ, residues 284 288 289 292 302 303 SSTLSG","PhoP, residues 12 14 15 18 19 LHSVQ (Escherichia coli, UniProt P23836)","Sort-seq, refers to: YFP reporter",E. coli,"PhoQ-PhoP variant library, added: 10 µM Mg2+","relative to: high Mg2+ state, higher = stronger signaling",fold induction,12

# Excerpt of the above (sample 3):
Strand,bound/input enrichment [ratio]
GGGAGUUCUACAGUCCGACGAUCGGCCUGGGACCGUCCUGGGCUAGUACAAAUAGCGGCAGUGGAGGCUCGAGAGGAAAGUUGUUAGUGGAGGCAGUGGUUAGAGGCCGUCAUGUACGGUCCUUUACUCGAUAGAUGUGUUCUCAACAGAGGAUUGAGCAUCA,0.584
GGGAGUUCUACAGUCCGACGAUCAAAGCCCUUGAAGAAAAAAAAAACUCGAACAGAUUUGACAAGGGUAGCCAGCUUGGAGUCUAGCAAUUUGCCAAUGUGUUUACCAAUCUGGGGGCUUGUUUUUCUUUUCUUCUUUCAAAUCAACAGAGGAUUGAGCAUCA,0.767
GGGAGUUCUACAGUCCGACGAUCUUUCUACUGCAGCAAACCAUGCUACGAAUUAAGGAUCCUAAGAAGUCCCUGGAUUUUUAUACGAGGGUUCUUGGAAUGACCCUCCUGCAGAAGCUUGACUUCCCUGCUAUGAAGUUCUCGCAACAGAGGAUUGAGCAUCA,0.0857
